Results from different studies.
Protocols differ between the studies behind these lines. ± gives the spread as reported. Values after ≈ are worked out from the molar mass of the structure shown.
Organism: Acinetobacter baumannii

`Oc1c(Br)cc(Br)c2nc3cc(Cl)ccc3nc12` has an IC50 of 56.7 µM (microbial growth; 19606).
`C[C@@H](N)[C@H](O)CCCCCCCC(=O)CCCCCCCCCCCCCC[C@@H](O[C@@H]1O[C@H](CO)[C@@H](O)[C@H](O)[C@H]1O)[C@@H](N)CO` has a growth inhibition of 93 ± 1.12% (resazurin; ATCC 19606; 50 µM).
The meropenem MIC of `O=C(O)CN(CC(=O)O)CP(=O)(O)O` is reported as 2 µg/mL (NDM-2 producer; 32 µg/mL, with: meropenem).
`CC[C@H](C)[C@H](NC(=O)[C@H](CCCCN)NC(=O)[C@H](CCCCN)NC(=O)[C@H](Cc1ccccc1)NC(=O)[C@H](Cc1ccccc1)NC(=O)[C@H](CCCCN)NC(=O)[C@H](CCCCN)NC(=O)[C@H](Cc1ccccc1)NC(=O)[C@H](CCCNC(=N)N)NC(=O)[C@@H](N)CCCCN)C(=O)N[C@@H](CCCCN)C(=O)N[C@@H](CCCCN)C(=O)N[C@@H](CO)C(=O)N[C@H](C(=O)N[C@@H](CCCCN)C(=O)N[C@@H](CCCCN)C(=O)N[C@@H](CCCNC(=N)N)C(=O)N[C@H](C(=O)N[C@@H](CCCCN)C(=O)N[C@@H](CCCCN)C(=O)N[C@@H](CC(C)C)C(=O)N[C@@H](Cc1ccccc1)C(=O)N[C@@H](CCCCN)C(=O)N[C@@H](CCCCN)C(=O)N1CCC[C@H]1C(=O)N[C@@H](CCCNC(=N)N)C(=O)N[C@H](C(=O)N[C@H](C(=O)N1CCC[C@H]1C(=O)N[C@H](C(=O)N[C@@H](CO)C(=O)N[C@H](C(=O)N1CCC[C@H]1C(=O)N[C@@H](Cc1ccccc1)C(=O)O)[C@@H](C)CC)[C@@H](C)CC)[C@@H](C)CC)C(C)C)C(C)C)C(C)C` gave an MBC of 8 µg/mL (≈ 1.9 µM) (A1, clinical isolate; 20 h, 37 °C).
For `CC[C@H](C)[C@H](NC(=O)CNC(=O)[C@H](CCCCN)NC(=O)[C@@H](NC(=O)[C@H](Cc1c[nH]c2ccccc12)NC(=O)[C@H](CCCCN)NC(=O)[C@H](Cc1ccccc1)NC(=O)[C@@H](NC(=O)[C@H](CCCCN)NC(=O)[C@H](CCCCN)NC(=O)[C@@H](NC(=O)[C@H](Cc1c[nH]c2ccccc12)NC(=O)[C@H](Cc1c[nH]c2ccccc12)NC(=O)[C@@H](N)CCCCN)[C@@H](C)CC)C(C)C)[C@@H](C)CC)C(=O)NCC(=O)N[C@@H](CCCCN)C(=O)N[C@@H](CCC(=O)O)C(=O)N[C@H](C(=O)N[C@H](C(=O)N[C@H](C(=O)N[C@@H](CCCNC(=N)N)C(=O)N[C@H](C(=O)NCC(=O)N[C@H](C(=O)N[C@@H](CCC(=O)O)C(=O)N[C@H](C(=O)N[C@@H](C)C(=O)N[C@@H](C)C(=O)N[C@@H](CS)C(=O)N[C@@H](CCCCN)C(=O)N[C@H](C(=O)N[C@@H](CCCCN)C(=O)NCC(=O)N[C@@H](CCC(=O)O)C(=O)N[C@@H](CS)C(N)=O)[C@@H](C)CC)[C@@H](C)CC)[C@@H](C)CC)[C@@H](C)O)[C@@H](C)CC)C(C)C)C(C)C`, the bactericidal rate was 100% (colony count; carbapenem-resistant, PBS; 20 µg/mL, 2 h).
The EC50 of `CCc1cc(CCN)nc(-c2nc(=O)c3ccccc3s2)c1` is reported as over 100 µM (cell growth, inhibitor; NCTC 13424 XDR; 5% CO2).
`Oc1c(Br)cc(Br)c2nc3cc(C(F)(F)F)ccc3nc12` has an IC50 of 3.1 µM (microbial growth; 19606).
`CCc1cc(CCC(=O)O)nc(-c2nc(=O)c3ccccc3s2)c1` gave an EC50 of over 100 µM (cell growth, inhibitor; NCTC 13424 XDR; 5% CO2).
`CC(N)C(O)CCCCCCCCCCCCCCC(=O)CCCCCCCC(O)C(C)N` (stereo not drawn) has a growth inhibition of 5 ± 12.4% (resazurin; ATCC 19606; 50 µM).

For quick reference, copied from above:
`Oc1c(Br)cc(Br)c2nc3cc(Cl)ccc3nc12` has an IC50 of 56.7 µM (microbial growth; 19606).
